Measured values pooled from the literature.
Protocols differ between the studies behind these lines. Numbers after ± are the reported error.
lacI D149A: lacI (Escherichia coli, UniProt P03023, D149A)
UniProt P03023, sequence (whole entry, unmodified, looked up): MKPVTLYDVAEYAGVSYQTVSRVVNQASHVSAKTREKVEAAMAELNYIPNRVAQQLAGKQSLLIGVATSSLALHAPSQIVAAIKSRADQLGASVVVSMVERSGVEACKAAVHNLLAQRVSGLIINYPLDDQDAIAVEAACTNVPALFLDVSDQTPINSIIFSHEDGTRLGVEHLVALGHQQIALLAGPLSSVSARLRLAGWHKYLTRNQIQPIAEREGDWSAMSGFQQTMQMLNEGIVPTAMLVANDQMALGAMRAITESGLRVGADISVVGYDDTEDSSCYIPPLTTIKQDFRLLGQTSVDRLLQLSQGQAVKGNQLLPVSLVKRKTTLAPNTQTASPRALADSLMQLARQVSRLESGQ
UniProt O75469, sequence (whole entry, looked up): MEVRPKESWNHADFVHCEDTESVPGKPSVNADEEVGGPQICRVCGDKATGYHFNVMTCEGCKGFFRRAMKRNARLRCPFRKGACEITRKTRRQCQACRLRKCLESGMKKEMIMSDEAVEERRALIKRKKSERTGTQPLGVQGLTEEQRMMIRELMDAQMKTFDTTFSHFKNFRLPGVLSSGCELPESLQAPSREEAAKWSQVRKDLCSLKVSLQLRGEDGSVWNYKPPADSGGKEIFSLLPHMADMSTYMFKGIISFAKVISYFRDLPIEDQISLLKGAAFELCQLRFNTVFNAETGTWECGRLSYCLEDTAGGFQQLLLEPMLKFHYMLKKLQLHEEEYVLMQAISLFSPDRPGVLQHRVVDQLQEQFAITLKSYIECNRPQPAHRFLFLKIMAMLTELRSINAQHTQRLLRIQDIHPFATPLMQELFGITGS
UniProt P20782, sequence (whole entry, looked up): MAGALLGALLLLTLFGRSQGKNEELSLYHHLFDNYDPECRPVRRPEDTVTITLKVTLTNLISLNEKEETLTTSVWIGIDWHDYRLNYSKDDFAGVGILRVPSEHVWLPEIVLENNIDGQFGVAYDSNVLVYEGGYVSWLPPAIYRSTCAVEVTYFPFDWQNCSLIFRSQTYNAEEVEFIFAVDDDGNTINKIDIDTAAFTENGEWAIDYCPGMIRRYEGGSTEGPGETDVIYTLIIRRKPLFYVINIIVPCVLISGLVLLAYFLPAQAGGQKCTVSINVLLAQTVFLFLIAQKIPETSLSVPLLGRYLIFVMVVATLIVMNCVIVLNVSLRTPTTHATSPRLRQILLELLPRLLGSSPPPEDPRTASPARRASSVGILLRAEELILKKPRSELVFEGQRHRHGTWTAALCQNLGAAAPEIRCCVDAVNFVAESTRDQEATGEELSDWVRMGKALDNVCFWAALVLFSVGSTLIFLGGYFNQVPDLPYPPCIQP
UniProt P41595, sequence (whole entry, looked up): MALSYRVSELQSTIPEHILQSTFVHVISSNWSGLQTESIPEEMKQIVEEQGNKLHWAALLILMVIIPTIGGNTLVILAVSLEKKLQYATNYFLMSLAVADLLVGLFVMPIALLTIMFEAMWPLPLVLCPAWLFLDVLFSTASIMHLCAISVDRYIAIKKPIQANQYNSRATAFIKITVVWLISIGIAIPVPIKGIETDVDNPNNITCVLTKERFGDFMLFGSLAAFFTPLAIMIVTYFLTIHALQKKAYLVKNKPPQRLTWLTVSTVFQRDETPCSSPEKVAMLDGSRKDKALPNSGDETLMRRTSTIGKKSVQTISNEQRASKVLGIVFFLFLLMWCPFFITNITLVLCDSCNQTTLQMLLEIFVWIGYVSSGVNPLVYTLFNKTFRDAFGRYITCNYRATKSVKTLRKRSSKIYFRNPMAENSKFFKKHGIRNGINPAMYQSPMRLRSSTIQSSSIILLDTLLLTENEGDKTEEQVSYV
UniProt Q14831, sequence (whole entry, looked up): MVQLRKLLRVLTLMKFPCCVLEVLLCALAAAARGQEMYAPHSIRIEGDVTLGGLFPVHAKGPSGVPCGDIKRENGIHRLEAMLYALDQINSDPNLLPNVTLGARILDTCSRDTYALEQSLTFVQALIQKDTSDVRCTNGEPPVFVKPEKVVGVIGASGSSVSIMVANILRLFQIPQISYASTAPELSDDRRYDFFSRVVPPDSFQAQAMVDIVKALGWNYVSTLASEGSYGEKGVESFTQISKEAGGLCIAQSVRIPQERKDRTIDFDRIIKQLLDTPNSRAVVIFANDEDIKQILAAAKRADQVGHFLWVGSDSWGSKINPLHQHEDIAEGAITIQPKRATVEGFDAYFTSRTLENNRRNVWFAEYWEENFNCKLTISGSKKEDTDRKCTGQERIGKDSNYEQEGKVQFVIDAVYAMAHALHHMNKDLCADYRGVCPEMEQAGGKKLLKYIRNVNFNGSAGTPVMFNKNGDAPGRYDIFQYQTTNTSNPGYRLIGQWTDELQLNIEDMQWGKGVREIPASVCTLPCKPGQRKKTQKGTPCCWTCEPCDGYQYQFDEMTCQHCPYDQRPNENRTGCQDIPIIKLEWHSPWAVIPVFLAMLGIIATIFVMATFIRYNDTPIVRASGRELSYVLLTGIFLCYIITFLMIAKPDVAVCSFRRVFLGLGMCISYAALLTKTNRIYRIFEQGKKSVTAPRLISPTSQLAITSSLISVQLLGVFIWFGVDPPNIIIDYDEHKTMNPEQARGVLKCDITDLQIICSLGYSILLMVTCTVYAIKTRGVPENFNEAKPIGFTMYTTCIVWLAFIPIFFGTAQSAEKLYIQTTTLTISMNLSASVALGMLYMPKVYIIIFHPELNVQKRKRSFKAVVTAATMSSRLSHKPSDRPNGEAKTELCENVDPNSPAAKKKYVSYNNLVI
UniProt P04756, sequence (whole entry, looked up): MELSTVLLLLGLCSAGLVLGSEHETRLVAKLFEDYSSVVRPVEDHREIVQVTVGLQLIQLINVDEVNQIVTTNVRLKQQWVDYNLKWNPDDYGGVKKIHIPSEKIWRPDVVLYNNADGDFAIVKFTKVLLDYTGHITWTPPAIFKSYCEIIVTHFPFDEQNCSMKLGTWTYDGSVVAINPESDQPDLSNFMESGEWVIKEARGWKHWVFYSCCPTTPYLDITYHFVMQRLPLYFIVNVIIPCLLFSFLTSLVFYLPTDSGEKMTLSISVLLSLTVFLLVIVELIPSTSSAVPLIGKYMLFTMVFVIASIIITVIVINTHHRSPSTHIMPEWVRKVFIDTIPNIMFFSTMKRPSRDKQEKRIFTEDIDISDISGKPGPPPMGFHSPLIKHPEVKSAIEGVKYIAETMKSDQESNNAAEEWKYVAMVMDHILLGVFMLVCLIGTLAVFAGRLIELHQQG
UniProt P56373, sequence (whole entry, looked up): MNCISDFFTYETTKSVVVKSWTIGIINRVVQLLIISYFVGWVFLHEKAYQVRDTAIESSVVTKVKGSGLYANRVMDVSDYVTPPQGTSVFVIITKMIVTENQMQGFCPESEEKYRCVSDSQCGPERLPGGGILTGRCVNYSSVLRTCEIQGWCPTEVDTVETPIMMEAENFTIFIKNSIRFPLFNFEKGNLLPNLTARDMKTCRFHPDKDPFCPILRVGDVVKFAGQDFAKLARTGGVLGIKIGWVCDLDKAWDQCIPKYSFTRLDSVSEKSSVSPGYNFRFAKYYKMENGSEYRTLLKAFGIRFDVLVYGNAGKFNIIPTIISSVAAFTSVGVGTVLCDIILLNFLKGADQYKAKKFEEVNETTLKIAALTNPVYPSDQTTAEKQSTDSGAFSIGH
UniProt P02716, sequence (whole entry, looked up): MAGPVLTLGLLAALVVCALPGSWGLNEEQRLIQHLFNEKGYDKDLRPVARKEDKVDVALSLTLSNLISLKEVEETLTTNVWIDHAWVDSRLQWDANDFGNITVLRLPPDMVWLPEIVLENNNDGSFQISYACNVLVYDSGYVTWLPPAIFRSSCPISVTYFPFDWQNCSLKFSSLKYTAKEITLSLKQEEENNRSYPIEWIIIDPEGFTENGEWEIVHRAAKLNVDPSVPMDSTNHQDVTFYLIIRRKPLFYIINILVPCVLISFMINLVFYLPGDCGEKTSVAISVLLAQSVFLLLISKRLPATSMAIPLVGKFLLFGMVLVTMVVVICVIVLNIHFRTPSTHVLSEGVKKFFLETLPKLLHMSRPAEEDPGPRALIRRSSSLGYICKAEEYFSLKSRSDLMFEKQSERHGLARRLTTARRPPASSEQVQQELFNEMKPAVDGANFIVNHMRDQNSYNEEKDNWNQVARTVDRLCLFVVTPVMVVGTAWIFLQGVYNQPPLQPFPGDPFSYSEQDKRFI
UniProt Q8NER1, sequence (whole entry, looked up): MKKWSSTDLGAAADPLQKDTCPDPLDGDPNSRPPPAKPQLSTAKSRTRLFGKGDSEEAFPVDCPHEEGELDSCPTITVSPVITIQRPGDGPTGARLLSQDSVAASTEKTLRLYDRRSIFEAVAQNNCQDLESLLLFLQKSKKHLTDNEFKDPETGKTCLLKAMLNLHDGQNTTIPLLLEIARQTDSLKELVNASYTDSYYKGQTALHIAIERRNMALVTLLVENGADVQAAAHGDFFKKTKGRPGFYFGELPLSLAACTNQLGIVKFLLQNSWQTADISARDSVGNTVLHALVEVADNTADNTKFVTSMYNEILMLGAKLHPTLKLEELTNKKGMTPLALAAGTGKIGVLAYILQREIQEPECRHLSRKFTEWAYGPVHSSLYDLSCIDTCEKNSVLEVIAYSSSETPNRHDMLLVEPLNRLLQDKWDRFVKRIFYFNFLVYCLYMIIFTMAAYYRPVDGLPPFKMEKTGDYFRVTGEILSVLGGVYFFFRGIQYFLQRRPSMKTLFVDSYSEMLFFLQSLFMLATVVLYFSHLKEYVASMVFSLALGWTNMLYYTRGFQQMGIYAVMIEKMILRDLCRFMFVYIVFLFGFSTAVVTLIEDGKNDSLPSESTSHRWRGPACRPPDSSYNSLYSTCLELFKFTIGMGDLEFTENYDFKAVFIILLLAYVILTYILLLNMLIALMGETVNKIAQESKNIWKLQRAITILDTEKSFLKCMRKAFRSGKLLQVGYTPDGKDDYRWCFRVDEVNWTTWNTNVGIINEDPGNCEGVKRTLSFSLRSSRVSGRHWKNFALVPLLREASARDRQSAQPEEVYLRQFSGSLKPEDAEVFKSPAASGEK

C[C@]12CC[C@@H](O)C[C@@H]1CC[C@@H]1[C@@H]2CC[C@]2(C)[C@@H]([N+](=O)[O-])CC[C@@H]12
EC50 (GABAA receptor (rat); enhancement of [3H]flunitrazepam binding, positive modulator; rat cerebral cortex homogenate; with: GABA 1.0 µM): 0.0229 ± 0.0035 µM

C[C@H](C(=O)N[C@H]1COc2ccccc2[C@@H]1S(C)(=O)=O)c1ccc(F)cc1
EC50 (GRM7 (Homo sapiens, UniProt Q14831); agonist, CellKey impedance; CHO cells expressing mGluR7): 0.08 µM

OC[C@H]1O[C@@H](OCCc2ccccc2)[C@H](O)[C@@H](O)[C@H]1O
EC50 (lacI D149A; operator DNA release, nitrocellulose filter binding; with: O1 operator DNA): > 1000 µM

C[C@H](N)Cn1ncc2ccc3c(c21)CCCO3
EC50 (HTR2B (Homo sapiens, UniProt P41595); agonist, aequorin; may be range): 0.00398 ± 0.00089 µM

COc1cc(C(=O)N2CC[C@@H](O)[C@@H](N)C2)cc2nc(-c3cc4ccccc4n3CC3CC3)n(C)c12
EC50 (HTR1B (Homo sapiens, UniProt P28222); agonist, GTPγS binding): 20 µM

C[C@]1(O)CC[C@@]2(C)[C@@H](CC[C@@H]3[C@@H]2CC[C@]2(C)[C@@H]([N+](=O)[O-])CC[C@@H]32)C1
EC50 (GABAA receptor (rat); enhancement of [3H]flunitrazepam binding, positive modulator; rat cerebral cortex homogenate; with: GABA 1.0 µM): > 10 µM

O=C1c2ccccc2C(=O)C1C(=O)C(c1ccccc1)c1ccccc1
EC50 (NR1I2 (Homo sapiens, UniProt O75469)): 60.7 ± 16.9 µM

CCCCCCCC/C=C\CCCCCCCC(=O)NCc1ccc(O)c(OC)c1
EC50 (TRPV1 (Homo sapiens, UniProt Q8NER1); Ca2+ influx, agonist, BRET; HEK-293T): 0.295 µM

C[C@H]1O[C@@H](Oc2ccccc2[N+](=O)[O-])[C@H](O)[C@@H](O)[C@H]1O
EC50 (lacI D149A; operator DNA binding, nitrocellulose filter binding; with: O1 operator DNA): 45 ± 2.9 µM

Nc1ccn([C@@H]2O[C@H](COP(=O)(O)OP(=O)(O)OP(=O)(O)O)[C@@H](O)[C@H]2O)c(=O)n1
EC50 (P2X purinoceptor 3 (P2RX3, Homo sapiens, UniProt P56373); ion current, agonist, patch clamp; HEK293 expressing wild-type): 14.8 ± 3.9 µM

CC[N+]1(C)CCN(c2ccccc2Cl)CC1
EC50 (Nicotinic acetylcholine receptor alpha1/beta1/epsilon/delta (Mus musculus, UniProt P02716+P04756+P09690+P20782); agonist): 11 ± 2.07 µM

For quick reference, copied from above:
Nc1ccn([C@@H]2O[C@H](COP(=O)(O)OP(=O)(O)OP(=O)(O)O)[C@@H](O)[C@H]2O)c(=O)n1
EC50 (P2X purinoceptor 3 (P2RX3, Homo sapiens, UniProt P56373); ion current, agonist, patch clamp; HEK293 expressing wild-type): 14.8 ± 3.9 µM
